Measured values of several laboratories.
A part holds a random share of what one study measured. Changes are numbered by the printed parent chain.

Study 1
Target: PABPC1L2, full length, GST fusion (mouse, UniProt A0ABA7IW68)
Method: RNAcompete
Form: RNA
Sample: in vitro
Concentration: 20 nM
Notes: 7-mer, probes averaged, single round
Baseline: mean of 7-mers
Direction: higher = stronger binding
Construct (chain): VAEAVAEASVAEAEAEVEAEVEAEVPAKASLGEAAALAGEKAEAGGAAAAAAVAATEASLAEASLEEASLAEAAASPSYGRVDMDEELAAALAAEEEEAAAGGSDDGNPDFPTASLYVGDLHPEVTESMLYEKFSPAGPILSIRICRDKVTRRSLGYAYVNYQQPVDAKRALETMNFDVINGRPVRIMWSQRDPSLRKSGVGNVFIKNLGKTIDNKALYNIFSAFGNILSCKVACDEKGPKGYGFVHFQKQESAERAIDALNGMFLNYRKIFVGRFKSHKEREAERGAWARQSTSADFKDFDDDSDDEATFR
Oligonucleotide	7-mer Z-score
CGCCAUA	-0.19
CUUCGCC	-0.441
UUUCGCC	-0.421
GAUCGCA	-0.269
AUUGUUA	-0.228
UCGGCGA	-0.103
UUGAGGA	-0.0863
AUCAUCU	-0.248

Study 2
Target: Probable WRKY transcription factor 11, DNA-binding domain (WRKY11, Arabidopsis thaliana, UniProt Q9SV15, residues 228-325)
Method: DNA-protein interaction ELISA
Form: double-stranded DNA, one strand shown
Sample: in vitro, bacterial lysate
Concentration: not given
Notes: whole dsDNA probe, crude lysate protein
Baseline: highest signal in screen
Direction: higher = stronger binding
Construct (chain): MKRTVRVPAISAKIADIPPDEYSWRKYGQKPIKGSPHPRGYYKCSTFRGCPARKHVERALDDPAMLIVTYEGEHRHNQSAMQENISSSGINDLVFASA
Oligonucleotide	relative absorbance
AAAAAATGCAACGCTCCTTTCCCGCTAAAA	13.3 % of maximum
AAAAAATTACTATTACACACTTGGGGAAAA	14.7 % of maximum
AAAAAAAGGGTCCGGTGCATACATGTAAAA	13.3 % of maximum
AAAAAATCGCGTCCGTGCTCAATCCAAAAA	12.7 % of maximum
AAAAAATTCCGGCTTGACGCTGCATAAAAA	16.7 % of maximum
AAAAAACGCCTTATGCCTCCCGCTCGAAAA	18.7 % of maximum
AAAAAACGCCGGACAATCAGGCGCTCAAAA	14.4 % of maximum
AAAAAATATGTTTTCGCTTTATTCTTAAAA	13 % of maximum

Study 3
Target: CEP164, C-terminal peptide (human)
Method: DHFR complementation, deep sequencing
Sample: yeast
Notes: single substitutions, model-inferred values
Baseline: wild type
Direction: higher = weaker binding
Starting sequence: PDZK1, PDZ domain 2 (human); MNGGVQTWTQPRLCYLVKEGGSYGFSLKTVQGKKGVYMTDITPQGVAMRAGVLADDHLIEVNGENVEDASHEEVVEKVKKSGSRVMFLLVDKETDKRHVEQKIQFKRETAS; partner HNRVKVYRF
Change	binding free energy change [kcal/mol]
D91T	-0.204
T94G	-0.0576
T109I	-0.152
S22W	-0.833
K80R	0.425
H98M	-0.0801
E60P	0.522
L13I	0.0133

Other studies, line by line
Sequence	target	assay	system	conditions	scale	quantity	value
KAVKRKLFAEDSS	human cyclin A2	peptide binding, competitive growth sequencing	peptide, Saccharomyces cerevisiae, cyclin A2-Cln2 fusion strain	concentration not given, single-residue mutant peptides	baseline: unfused Cln2 strain, direction not given	median binding score	5.96

Excerpt of the above (study 2):
Oligonucleotide	relative absorbance
AAAAAATTACTATTACACACTTGGGGAAAA	14.7 % of maximum
AAAAAATGCAACGCTCCTTTCCCGCTAAAA	13.3 % of maximum
